Published values gathered from unrelated publications.
Each line is one published result; not all experiments were run side by side. Several values in a cell are separate wells, animals, samples, runs or records. ± marks the error that the study gave.

Structure (SMILES)	test	system	setting	how to read	quantity	result
CCCCCc1ccc(S(=O)(=O)N2CC2C(=O)OC)cc1 (stereo not shown)		mouse, Lewis lung carcinoma	intraperitoneal, 15 mg/kg, 16 doses, day 11		tumour volume	313 mm3
COc1cc(O)ccc1CCC(c1ccc(O)cc1)c1cc2c(c(C)c1O)OC(c1ccc(O)cc1)CC2 (mixture of isomers)		human blood	3 µM, with: A23187		LTB4 isomers level	197 ± 89 pg/mL
CCC(=O)N[C@@H](C)C(=O)OCC(=O)N[C@@H](C)C(=O)O		water	pH 4, 37 °C		chain scission rate constant	0.0008 h⁻¹
COc1c(Cl)cccc1Nc1c(-c2ccncc2C#C[C@@]2(C)CCCN2C(=O)/C=C/CN(C)C)[nH]c2c1C(=O)NCC2		NCI-H2073 parental xenograft (EGFR wild-type), BALB/c nude mice	50 mg/kg once daily, 21 days		tumour growth inhibition	87.3%
CCCCCCCCCCCCCCCC(=O)OCC(CSC[C@H](N)C(=O)N[C@@H](CO)C(=O)N[C@@H](CCCCN)C(=O)N[C@@H](CCCCN)C(=O)N[C@@H](CCCCN)C(=O)N[C@@H](CCCCN)C(=O)NCCCCCC(=O)N[C@@H](CCCCN)C(=O)N[C@@H](CC(C)C)C(=O)N[C@H](C(=O)N[C@@H](Cc1ccccc1)C(=O)N[C@@H](Cc1ccccc1)C(=O)N[C@@H](Cc1ccc2ccccc2c1)C(=O)O)C(C)C)OC(=O)CCCCCCCCCCCCCCC (stereo partly shown)		APP/PS1 transgenic mouse, cortex	local cortical injection, dose not given, unit not given	baseline: injected over adjacent side	Iba1 level	2.91 and 2.48 and 2.44 and 2.49 and 2.31 and 2.52 and 3.31 and 2.95
CC(C)[C@H](NC(=O)[C@H](CC(=O)O)NC(=O)[C@@H](NC(=O)[C@H](Cc1c[nH]c2ccccc12)NC(=O)[C@H](CCC(=O)O)NC(=O)[C@H](C)NC(=O)[C@H](CC(=O)O)NC(=O)CNC(=O)[C@H](Cc1ccc(O)cc1)NC(=O)[C@H](Cc1ccc(OP(=O)(O)O)cc1)NC(=O)[C@H](Cc1ccc(O)cc1)NC(=O)CCNC(=O)c1ccc(C(=O)[O-])c(-c2c3ccc(=[N+](C)C)cc-3oc3cc(N(C)C)ccc23)c1)C(C)C)C(=O)N[C@@H](CO)C(=O)O	immunohistochemistry	ApoE-/- mice, aortic sinus sections	dose not given, 21 days		MMP-9 positive area	19.9 ± 6.18%
O=S(=O)(NCc1ccncc1)c1ccc(C2CCCCC2)cc1	immunohistochemistry	5XFAD mice male 1-year-old, hippocampus	ip, 0.3 mg/kg daily, 6 wk	baseline: vehicle	amyloid–microglia colocalization reduction	~61%
COC1CN([C@H]2CC[C@H]([C@@]3(C)Oc4c(Cl)cc(C(=O)NCc5c(SC)cc(C)[nH]c5=O)c(C)c4O3)CC2)C1	RNA-seq, item: ZMYND15	human, whole blood	dose not given, 24 h	baseline: pretreatment baseline	log2 fold change	3.86
CC(=O)[O-].O.O.O.O.[Co+2].[O-]c1ccc(Br)cc1C=NCCN1CCOCC1	FRAP		80 µM		ferric reducing power	19.5%
COc1ccc(NC(=O)c2ccc3[nH]c(-c4ccc(N(C)C)cc4)nc3c2)cn1	micro-CT	mice, spontaneous lung tumour model	intraperitoneal, 25 mg/kg 5 times per week, 10 weeks, sum of nodule volumes		tumour volume	25.2 mm3 and 0.35 mm3 and 1.1 mm3 and 2.28 mm3 and 1.96 mm3 and 5.47 mm3 and 1.33 mm3
Cc1c(C)c2cccnc2c2ncccc12.O=[N+]([O-])[O-].O=c1c(C=NN=C([S-])Nc2ccccc2)coc2ccccc12.[Cu+2]	oxidative DNA cleavage	supercoiled pUC19 DNA	100 µM, 30 min, with: ascorbic acid 50 µM, DNA 40 µM		supercoiled DNA form	0%
CN1CCC[C@]1(C)/C=C/S(=O)(=O)NC(=O)Nc1c2c(cc3c1CCC3)CCC2		human, whole blood ex vivo	12.5 mg twice daily, day 14, 12 h, multiple ascending dose, with: LPS and ATP		IL-18 inhibition	72.3%
Fc1cccc(-n2cc(-c3ccccc3)nc2NCc2ccc(C(F)(F)F)c(Br)c2)c1	DPPH radical scavenging	methanol	first order kinetics		rate constant	0.301 ± 0.0409 s⁻¹
NC[C@@H](C(=O)Nc1ccc(-c2cn[nH]c2)cc1)c1ccccc1	tonometry	Macaca cyclopis, ocular normotensive	ocular, 0.1%, 8 h		IOP	16.3 mmHg
C=CC(=O)N1Cc2nc(-c3cc(-c4cc(Cl)cnc4Cl)c(F)cc3F)n(-c3ccncn3)c2C1		mice, NCI-H2073 vs LXF 2478 xenografts	highest clinically relevant dose, unit not given	baseline: NCI-H2073 minus LXF 2478	growth rate difference	0.0564
COc1ccccc1-c1c[nH]c2ncc(-c3cncc(C(=O)N(C)C)c3)cc12		NSG mice, K562 xenograft	ip, 0.0268 mmol/kg once daily, 16 days		tumour growth inhibition	40.3 ± 6%
COc1ccc(C(=O)CCc2cc(C(CCc3ccc(O)cc3OC)c3ccc(O)cc3)c(O)cc2OC)cc1 (racemic)		human blood	10 µM, with: A23187		LTB4 isomers level	374 ± 147 pg/mL
COCCOCCOCCNC(=O)Cc1cc(CC(=O)N[C@H]2C[C@H]3C(=O)Nc4cc(OCCOCCOCCOC)cc(n4)C(=O)N4CCC[C@H]4C(=O)Nc4cc(OCCOCCOCCOC)cc(n4)C(=O)N4CCC[C@H]4C(=O)Nc4cc(OCCOCCOCCOC)cc(n4)C(=O)N3C2)cc(CC(=O)N[C@H]2C[C@H]3C(=O)Nc4cc(OCCOCCOCCOC)cc(n4)C(=O)N4CCC[C@H]4C(=O)Nc4cc(OCCOCCOCCOC)cc(n4)C(=O)N4CCC[C@H]4C(=O)Nc4cc(OCCOCCOCCOC)cc(n4)C(=O)N3C2)c1	anion binding, ITC	water/methanol 70 vol% (84.0 mol%)	298 K, with: sodium sulfate		ΔH	-2.1 ± 0.0239 kcal/mol
COCC1CN(C2CCN(c3cc(OC)c(Nc4ncc(Br)c(Nc5ccc6c(c5P(C)(C)=O)OCCO6)n4)cc3C)CC2)C1	RECIST 1.1	advanced EGFR-mutant NSCLC patients	30 mg once daily		partial response	0%

Some of these lines once more:
Structure (SMILES)	test	system	setting	how to read	quantity	result
CCCCCCCCCCCCCCCC(=O)OCC(CSC[C@H](N)C(=O)N[C@@H](CO)C(=O)N[C@@H](CCCCN)C(=O)N[C@@H](CCCCN)C(=O)N[C@@H](CCCCN)C(=O)N[C@@H](CCCCN)C(=O)NCCCCCC(=O)N[C@@H](CCCCN)C(=O)N[C@@H](CC(C)C)C(=O)N[C@H](C(=O)N[C@@H](Cc1ccccc1)C(=O)N[C@@H](Cc1ccccc1)C(=O)N[C@@H](Cc1ccc2ccccc2c1)C(=O)O)C(C)C)OC(=O)CCCCCCCCCCCCCCC (stereo partly shown)		APP/PS1 transgenic mouse, cortex	local cortical injection, dose not given, unit not given	baseline: injected over adjacent side	Iba1 level	2.91 and 2.48 and 2.44 and 2.49 and 2.31 and 2.52 and 3.31 and 2.95
